Measurements gathered from unrelated publications.
Each numbered part is a random draw from the data of one study; scales do not carry over between parts. “And” joins repeats or separate records; there may be more than shown.
Chain of UniProt O96017 (whole entry, looked up): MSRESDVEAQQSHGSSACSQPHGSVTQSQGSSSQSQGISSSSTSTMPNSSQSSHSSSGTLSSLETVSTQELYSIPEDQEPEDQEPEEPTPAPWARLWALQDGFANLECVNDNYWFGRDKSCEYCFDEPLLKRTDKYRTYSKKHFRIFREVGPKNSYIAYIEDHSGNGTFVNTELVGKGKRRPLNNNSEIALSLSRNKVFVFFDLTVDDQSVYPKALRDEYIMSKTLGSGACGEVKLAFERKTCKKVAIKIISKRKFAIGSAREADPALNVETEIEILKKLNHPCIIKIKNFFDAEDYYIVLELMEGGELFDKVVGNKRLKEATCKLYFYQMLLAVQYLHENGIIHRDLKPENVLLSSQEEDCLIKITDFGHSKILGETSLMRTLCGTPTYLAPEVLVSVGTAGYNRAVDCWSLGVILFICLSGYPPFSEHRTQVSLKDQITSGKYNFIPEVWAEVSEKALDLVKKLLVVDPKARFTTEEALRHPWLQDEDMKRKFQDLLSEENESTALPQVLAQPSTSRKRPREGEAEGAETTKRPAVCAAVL
Chain of UniProt Q92772 (whole entry, looked up): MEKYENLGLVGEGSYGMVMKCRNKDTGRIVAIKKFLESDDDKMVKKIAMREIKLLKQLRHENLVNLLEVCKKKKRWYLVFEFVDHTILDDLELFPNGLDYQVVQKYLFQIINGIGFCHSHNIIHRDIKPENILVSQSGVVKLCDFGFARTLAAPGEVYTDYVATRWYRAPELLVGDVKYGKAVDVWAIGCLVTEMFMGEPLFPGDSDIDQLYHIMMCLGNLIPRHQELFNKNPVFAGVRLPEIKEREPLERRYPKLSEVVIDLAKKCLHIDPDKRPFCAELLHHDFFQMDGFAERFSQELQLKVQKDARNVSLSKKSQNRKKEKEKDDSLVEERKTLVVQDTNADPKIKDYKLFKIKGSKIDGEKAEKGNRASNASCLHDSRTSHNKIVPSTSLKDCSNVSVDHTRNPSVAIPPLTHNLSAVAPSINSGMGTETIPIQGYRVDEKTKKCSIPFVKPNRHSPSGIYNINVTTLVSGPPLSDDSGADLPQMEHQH
Chain of UniProt O75582 (whole entry, looked up): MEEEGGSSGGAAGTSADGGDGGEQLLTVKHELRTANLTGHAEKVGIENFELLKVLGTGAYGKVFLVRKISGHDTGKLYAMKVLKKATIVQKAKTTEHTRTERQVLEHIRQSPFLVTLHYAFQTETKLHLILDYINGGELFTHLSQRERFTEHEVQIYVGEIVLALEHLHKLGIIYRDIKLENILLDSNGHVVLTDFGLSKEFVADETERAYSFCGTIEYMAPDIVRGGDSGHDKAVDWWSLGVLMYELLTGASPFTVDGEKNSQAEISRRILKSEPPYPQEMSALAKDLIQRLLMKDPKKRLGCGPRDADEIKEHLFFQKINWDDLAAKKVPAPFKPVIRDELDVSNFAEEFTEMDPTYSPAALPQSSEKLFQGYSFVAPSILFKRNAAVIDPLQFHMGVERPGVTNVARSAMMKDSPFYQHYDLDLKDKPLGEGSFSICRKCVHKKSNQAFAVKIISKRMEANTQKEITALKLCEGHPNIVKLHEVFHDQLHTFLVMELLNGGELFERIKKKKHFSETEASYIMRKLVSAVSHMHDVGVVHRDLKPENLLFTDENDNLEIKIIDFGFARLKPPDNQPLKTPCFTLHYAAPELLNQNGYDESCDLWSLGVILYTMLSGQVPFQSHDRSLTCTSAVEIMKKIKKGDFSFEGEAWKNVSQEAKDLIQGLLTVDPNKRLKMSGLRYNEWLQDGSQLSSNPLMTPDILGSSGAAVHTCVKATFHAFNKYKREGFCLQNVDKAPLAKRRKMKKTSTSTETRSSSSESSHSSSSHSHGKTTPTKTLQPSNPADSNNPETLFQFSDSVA
Chain of UniProt P29597 (whole entry, looked up): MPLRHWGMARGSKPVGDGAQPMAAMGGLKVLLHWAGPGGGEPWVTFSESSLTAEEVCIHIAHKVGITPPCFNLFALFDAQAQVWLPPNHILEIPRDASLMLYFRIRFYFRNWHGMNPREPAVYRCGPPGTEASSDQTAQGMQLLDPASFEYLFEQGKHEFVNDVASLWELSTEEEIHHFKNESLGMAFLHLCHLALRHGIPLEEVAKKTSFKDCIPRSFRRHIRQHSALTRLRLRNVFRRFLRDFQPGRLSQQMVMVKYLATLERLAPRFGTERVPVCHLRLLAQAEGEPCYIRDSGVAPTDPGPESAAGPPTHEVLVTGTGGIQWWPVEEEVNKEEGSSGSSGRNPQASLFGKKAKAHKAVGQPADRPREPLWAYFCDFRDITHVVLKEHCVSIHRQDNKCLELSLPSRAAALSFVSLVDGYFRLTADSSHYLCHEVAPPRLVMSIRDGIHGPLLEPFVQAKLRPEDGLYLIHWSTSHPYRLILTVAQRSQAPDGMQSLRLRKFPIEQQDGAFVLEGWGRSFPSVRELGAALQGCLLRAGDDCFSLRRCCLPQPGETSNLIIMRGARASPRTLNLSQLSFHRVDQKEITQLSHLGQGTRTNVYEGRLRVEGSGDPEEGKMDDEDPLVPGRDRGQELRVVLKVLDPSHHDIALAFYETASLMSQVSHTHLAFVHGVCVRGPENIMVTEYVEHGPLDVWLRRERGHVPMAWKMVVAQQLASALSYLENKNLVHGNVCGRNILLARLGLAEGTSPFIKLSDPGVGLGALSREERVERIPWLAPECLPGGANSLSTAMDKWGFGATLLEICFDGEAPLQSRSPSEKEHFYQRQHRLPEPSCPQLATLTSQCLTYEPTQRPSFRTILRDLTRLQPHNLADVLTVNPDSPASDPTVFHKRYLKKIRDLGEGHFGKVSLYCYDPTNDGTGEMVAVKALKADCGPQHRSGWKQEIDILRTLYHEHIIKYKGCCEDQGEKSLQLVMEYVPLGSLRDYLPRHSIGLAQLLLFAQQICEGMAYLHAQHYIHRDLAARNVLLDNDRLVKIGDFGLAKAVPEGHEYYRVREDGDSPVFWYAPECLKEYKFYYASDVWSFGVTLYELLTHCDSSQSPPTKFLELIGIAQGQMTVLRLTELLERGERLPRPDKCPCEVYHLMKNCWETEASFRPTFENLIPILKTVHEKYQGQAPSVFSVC
Chain of UniProt Q16513 (whole entry, looked up): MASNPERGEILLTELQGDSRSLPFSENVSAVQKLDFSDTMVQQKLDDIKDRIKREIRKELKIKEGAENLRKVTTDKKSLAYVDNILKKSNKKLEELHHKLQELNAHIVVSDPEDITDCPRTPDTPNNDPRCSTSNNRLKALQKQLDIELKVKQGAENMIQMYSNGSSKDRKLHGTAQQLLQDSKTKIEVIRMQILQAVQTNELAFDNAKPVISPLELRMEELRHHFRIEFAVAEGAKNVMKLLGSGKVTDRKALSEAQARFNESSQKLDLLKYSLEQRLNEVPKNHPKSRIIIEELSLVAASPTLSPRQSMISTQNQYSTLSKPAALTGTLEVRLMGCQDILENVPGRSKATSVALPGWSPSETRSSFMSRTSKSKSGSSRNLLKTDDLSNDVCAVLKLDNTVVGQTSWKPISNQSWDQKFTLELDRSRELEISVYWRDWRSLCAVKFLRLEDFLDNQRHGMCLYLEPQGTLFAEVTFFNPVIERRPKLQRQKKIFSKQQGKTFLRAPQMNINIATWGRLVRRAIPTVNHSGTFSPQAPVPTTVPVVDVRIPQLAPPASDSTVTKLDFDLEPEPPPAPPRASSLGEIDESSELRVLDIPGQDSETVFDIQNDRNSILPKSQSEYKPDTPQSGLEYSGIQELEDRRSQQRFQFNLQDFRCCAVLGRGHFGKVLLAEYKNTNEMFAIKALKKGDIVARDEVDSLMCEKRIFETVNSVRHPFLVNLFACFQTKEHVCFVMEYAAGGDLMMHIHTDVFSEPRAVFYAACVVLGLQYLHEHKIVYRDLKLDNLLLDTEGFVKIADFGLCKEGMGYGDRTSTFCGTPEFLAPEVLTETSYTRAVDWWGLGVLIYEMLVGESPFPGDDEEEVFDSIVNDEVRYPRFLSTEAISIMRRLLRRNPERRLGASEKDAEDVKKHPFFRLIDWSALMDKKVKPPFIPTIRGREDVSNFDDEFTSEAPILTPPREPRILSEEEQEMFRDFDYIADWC
Chain of UniProt Q6PHR2 (whole entry, looked up): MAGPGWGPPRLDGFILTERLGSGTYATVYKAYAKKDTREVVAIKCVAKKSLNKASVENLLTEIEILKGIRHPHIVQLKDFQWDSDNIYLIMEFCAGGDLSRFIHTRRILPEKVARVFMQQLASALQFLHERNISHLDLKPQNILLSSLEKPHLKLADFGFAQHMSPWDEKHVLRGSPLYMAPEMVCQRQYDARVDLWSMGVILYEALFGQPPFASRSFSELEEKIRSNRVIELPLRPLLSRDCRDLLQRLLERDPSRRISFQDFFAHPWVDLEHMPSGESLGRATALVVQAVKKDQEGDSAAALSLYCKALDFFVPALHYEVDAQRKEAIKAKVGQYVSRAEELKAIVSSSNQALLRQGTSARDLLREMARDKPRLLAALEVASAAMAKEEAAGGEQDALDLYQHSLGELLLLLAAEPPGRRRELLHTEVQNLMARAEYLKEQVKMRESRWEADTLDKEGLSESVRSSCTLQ

Series 1
SMILES: COc1cc(C(=O)N2CCC(N3CCN(C)CC3)CC2)ccc1Nc1ncc2c(n1)N(C)c1ccccc1C(=O)N2C
For PIK3CA; 1 µM: inhibition read 31.5%.
human PBMC; probe labeling, inhibitor, KiNativ profiling, refers to: FYAVkVLQK; cell lysate; concentration not given, LYS1 site, added: ATP acyl-phosphate probe 0.1 µM — inhibition: -3.7%.
For RSKL1 domain 1 (mouse); probe labelling, inhibitor, KiNativ ActivX ATP probe; mouse brain lysate; 0.1 µM, kinase domain peptide: inhibition read -5.6%.
The inhibition was -11.3% (RSKL1 domain 1 (mouse); probe labelling, inhibitor, KiNativ ActivX ADP probe; mouse brain lysate; 1 µM).
The inhibition was 0.3% (PDK1 (mouse); probe labelling, KiNativ ADP probe; mouse brain lysate; 1 µM, LYS1 labelled site).
It gave 0.5% for inhibition (MAP3K2 and MAP3K3 (mouse); probe labelling, KiNativ, refers to: DIkGANILR peptide, LYS2 site; brain tissue lysate (mouse); 0.1 µM, added: ADP acyl-phosphate probe).
For RSKL1 kinase domain 1 (human); probe labelling, KiNativ, refers to: kinase domain site peptide; PBMC lysate (human); 1 µM, added: ADP acyl-phosphate probe: inhibition read -9.4%.
WNK1/WNK2/WNK4 (mouse); probe labelling, inhibitor, KiNativ ActivX ATP probe; mouse brain lysate; 1 µM, activation loop peptide IGDLGLATLkR — inhibition: -7.8%.
For WNK1, WNK2 and WNK4 (human); probe labelling, KiNativ, refers to: IGDLGLATLkR peptide, activation loop; PBMC lysate (human); 0.1 µM, added: ATP acyl-phosphate probe: inhibition read 3.7%.
For eEF2K (mouse); probe labelling, inhibitor, KiNativ ActivX ATP probe; mouse brain lysate; 0.1 µM, ATP loop peptide YIkYNSNSGFVR: inhibition read -5.7%.
mouse ILK; probe labelling, KiNativ ATP probe; mouse brain lysate; 1 µM, kinase domain ISMADVkFSFQCPGR — inhibition: -20.2%.

Series 2
Target: Eukaryotic initiation factor 4A-III (Homo sapiens, UniProt P38919)
Chain of UniProt P38919 (whole entry, looked up): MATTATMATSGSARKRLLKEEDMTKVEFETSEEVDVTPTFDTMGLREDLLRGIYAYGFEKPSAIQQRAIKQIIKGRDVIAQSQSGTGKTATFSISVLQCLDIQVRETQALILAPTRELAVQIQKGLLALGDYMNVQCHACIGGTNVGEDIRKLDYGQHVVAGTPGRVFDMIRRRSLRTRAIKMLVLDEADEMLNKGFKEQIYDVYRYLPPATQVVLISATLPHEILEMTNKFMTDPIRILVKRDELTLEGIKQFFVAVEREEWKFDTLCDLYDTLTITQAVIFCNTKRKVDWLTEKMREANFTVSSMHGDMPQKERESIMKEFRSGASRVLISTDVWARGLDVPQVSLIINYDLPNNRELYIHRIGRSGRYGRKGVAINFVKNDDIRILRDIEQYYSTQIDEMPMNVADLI
Effect on: RNA clamping
Method: fluorescence polarization
Concentration: concentration not given
Added: FAM-labelled poly r(AG)8 RNA
`COc1ccc([C@@]23Oc4cc(OC)cc(OC)c4[C@]2(O)c2nc(-c4ccccc4)n(CC(CC(=O)O)OC)c(=O)c2[C@H]3c2ccccc2)cc1` (some centres unmarked) — result for “fluorescence polarization change”: 3.4 mP.
`COc1cc(OC)c2c(c1)O[C@@]1(c3ccc(OC)c(O)c3)[C@H](c3ccccc3)[C@@H](C(=O)c3ccco3)[C@@H](O)[C@@]21O`: “fluorescence polarization change” 3.1 mP.
`COc1ccc([C@@]23Oc4cc(OC)cc(OC)c4[C@]2(O)c2nc(C)[nH]c(=O)c2[C@H]3c2ccccc2)cc1`: “fluorescence polarization change” 51.7 mP.
`COC(=O)[C@@H]1[C@@H](c2ccccc2)[C@]2(c3ccc(OC)cc3)Oc3cc(OC)cc(OC)c3[C@@]23NC(c2ccc(C(F)(F)F)cc2)=N[C@@]13O` — result for “fluorescence polarization change”: 0.4 mP.
`COc1ccc([C@@]23Oc4cc(OC)cc(OC)c4[C@]2(O)[C@H](O)[C@H](C(=O)c2ccco2)[C@H]3c2ccc(Br)cc2)cc1`: “fluorescence polarization change” 1.3 mP.
`O=C1O[C@H]2[C@@H]1[C@H](c1ccccc1)[C@@]1(c3ccccc3)Oc3ccccc3[C@@]21O`: “fluorescence polarization change” -8.1 mP.
Under “fluorescence polarization change”, `COC(=O)[C@H]1C(=O)[C@@]2(NCCN3CCOCC3)c3c(OC)cc(OC)cc3O[C@@]2(c2ccc(OC)cc2)[C@@H]1c1ccccc1` is recorded as 13.7 mP.
`COC(=O)[C@H]1C(=O)[C@@]2(NCCCC(OC)OC)c3c(OC)cc(OC)cc3O[C@@]2(c2ccc(OC)cc2)[C@@H]1c1ccccc1` — result for “fluorescence polarization change”: 11.3 mP.
For `CONC(=O)[C@H]1[C@@H](O)[C@@]2(O)c3c(OC)cc(O)cc3O[C@@]2(c2ccc(Br)cc2)[C@@H]1c1ccccc1`, “fluorescence polarization change” read 57.6 mP.
`COC(=O)/C=C/n1c(-c2ccccc2)nc2c(c1=O)[C@@H](c1ccccc1)[C@]1(c3ccc(OC)cc3)Oc3cc(OC)cc(OC)c3[C@]21O` — result for “fluorescence polarization change”: 8.8 mP.
For `C=CCOc1nc(-c2ccccc2)nc2c1[C@@H](c1ccccc1)[C@]1(c3ccc(OC)cc3)Oc3cc(OC)cc(OC)c3[C@]21O`, “fluorescence polarization change” read 5.2 mP.

Series 3
Compound: CCC(=O)N[C@@H]1CC[C@H](C(=O)N(C)c2ccc(-c3nc4ccccc4o3)cc2)C1
Effect on: cell-free assay
Method: competition with immobilised ligand
Concentration: 1 µM
It gave 95% for remaining binding (EGFR (Homo sapiens, UniProt P00533, L861Q)).
It gave 100% for remaining binding (CDKL2 (Homo sapiens, UniProt Q92772)).
The remaining binding was 96% (EGFR (Homo sapiens, UniProt P00533, T790M)).
It gave 100% for remaining binding (Non-receptor tyrosine-protein kinase TYK2, JH1 (TYK2, Homo sapiens, UniProt P29597)).
The remaining binding was 100% (MAP3K9 (Homo sapiens, UniProt P80192)).
For ULK3 (Homo sapiens, UniProt Q6PHR2): remaining binding read 66%.
The remaining binding was 100% (CHEK2 (Homo sapiens, UniProt O96017)).
It gave 62% for remaining binding (EGFR (Homo sapiens, UniProt P00533, del746-750)).
The remaining binding was 100% (EPHA8 (Homo sapiens, UniProt P29322)).
For EGFR (Homo sapiens, UniProt P00533, A750P/del747-749): remaining binding read 100%.
For KIT (Homo sapiens, UniProt P10721, V559D/V654A): remaining binding read 100%.
It gave 75% for remaining binding (Ribosomal protein S6 kinase alpha-5, N-terminal kinase domain (RPS6KA5, Homo sapiens, UniProt O75582)).
Tyrosine-protein kinase ABL1, non-phosphorylated (ABL1, Homo sapiens, UniProt P00519, T315I) — remaining binding: 79%.
The remaining binding was 100% (PKN2 (Homo sapiens, UniProt Q16513)).

Series 4
SMILES: CN(C(=O)c1ccn2ncc(-c3ccc(C(N)=O)cc3)c2c1)c1ccc(C#N)cn1
Organism: Cryptosporidium parvum
Method: time-kill
Cells: HCT-8
Strain: nanoluciferase-expressing
Direction: higher = more parasites
For 0.02743 µM, 48 h: parasite luminescence read 202000 RLU and 204000 RLU.
It gave 107000 RLU and 85100 RLU for parasite luminescence (0.00102 µM, 8 h).
It gave 69100 RLU and 89100 RLU for parasite luminescence (0.00914 µM, 4 h).
0.02743 µM, 24 h — parasite luminescence: 193000 RLU and 194000 RLU.
It gave 113000 RLU and 115000 RLU for parasite luminescence (6.667 µM, 8 h).
It gave 194000 RLU and 116000 RLU for parasite luminescence (0.00102 µM, 72 h).
The parasite luminescence was 270000 RLU and 217000 RLU (0.00914 µM, 24 h).
It gave 26300 RLU and 24200 RLU for parasite luminescence (0.2469 µM, 48 h).
